Published values from different studies.
Parts stem from different laboratories: compare values within a part only.
Chain of UniProt Q15835 (whole entry, looked up): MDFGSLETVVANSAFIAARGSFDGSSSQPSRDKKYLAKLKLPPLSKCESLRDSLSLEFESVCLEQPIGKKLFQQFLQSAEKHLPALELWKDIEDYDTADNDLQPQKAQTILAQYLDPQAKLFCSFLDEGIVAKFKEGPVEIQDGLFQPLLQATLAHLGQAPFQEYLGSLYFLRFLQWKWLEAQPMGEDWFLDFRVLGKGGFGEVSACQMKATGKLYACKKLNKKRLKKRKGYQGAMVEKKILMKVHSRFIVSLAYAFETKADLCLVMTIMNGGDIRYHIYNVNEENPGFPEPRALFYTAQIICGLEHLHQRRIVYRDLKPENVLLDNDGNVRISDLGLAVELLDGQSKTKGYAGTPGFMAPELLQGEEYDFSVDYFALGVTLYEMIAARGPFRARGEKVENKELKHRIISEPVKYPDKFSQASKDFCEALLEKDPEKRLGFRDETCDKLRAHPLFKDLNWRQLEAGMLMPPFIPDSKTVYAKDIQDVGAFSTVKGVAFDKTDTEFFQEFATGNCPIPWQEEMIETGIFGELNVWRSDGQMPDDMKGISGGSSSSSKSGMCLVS
Chain of UniProt O00238 (whole entry, looked up): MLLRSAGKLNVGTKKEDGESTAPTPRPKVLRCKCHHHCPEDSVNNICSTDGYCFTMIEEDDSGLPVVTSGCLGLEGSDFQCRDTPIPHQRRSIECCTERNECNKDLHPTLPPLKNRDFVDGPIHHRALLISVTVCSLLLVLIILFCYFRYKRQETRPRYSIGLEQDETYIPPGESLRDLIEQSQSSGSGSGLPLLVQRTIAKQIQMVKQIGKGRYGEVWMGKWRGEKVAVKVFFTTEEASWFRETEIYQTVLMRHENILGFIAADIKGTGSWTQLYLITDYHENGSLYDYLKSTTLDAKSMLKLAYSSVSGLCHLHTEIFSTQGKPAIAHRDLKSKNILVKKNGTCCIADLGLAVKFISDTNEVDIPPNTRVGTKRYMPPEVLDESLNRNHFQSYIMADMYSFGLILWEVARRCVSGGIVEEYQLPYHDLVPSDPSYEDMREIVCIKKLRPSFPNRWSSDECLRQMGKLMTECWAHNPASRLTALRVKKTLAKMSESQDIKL
Chain of UniProt O00506 (whole entry, looked up): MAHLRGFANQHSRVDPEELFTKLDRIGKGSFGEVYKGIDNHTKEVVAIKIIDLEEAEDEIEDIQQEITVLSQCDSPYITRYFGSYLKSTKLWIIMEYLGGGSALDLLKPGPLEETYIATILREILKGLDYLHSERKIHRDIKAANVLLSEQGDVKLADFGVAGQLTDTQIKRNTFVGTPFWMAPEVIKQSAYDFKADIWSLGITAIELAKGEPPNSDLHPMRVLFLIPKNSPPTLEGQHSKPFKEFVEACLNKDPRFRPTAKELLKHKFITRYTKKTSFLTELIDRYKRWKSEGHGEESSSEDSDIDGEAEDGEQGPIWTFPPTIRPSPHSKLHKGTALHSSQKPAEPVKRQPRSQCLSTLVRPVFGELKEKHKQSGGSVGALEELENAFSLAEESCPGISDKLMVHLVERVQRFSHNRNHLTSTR
Chain of UniProt Q14164 (whole entry, looked up): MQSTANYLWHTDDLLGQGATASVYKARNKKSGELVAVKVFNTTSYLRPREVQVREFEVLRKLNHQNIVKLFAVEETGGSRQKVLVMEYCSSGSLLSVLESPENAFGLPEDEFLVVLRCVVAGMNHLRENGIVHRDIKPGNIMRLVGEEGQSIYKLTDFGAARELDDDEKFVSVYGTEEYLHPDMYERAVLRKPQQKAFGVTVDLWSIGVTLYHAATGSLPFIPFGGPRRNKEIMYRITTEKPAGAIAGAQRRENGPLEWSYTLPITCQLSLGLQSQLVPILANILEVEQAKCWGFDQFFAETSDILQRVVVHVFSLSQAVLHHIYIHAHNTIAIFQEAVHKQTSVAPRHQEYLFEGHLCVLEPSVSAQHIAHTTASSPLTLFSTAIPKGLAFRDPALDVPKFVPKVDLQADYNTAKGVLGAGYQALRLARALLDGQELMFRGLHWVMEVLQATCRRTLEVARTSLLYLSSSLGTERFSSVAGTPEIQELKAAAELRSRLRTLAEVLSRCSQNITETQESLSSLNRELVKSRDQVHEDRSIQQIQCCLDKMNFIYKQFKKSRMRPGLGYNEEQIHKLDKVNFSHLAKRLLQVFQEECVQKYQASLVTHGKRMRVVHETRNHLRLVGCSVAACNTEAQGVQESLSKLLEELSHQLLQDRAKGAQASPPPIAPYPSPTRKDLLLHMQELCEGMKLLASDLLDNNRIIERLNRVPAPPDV
Chain of UniProt O75716 (whole entry, looked up): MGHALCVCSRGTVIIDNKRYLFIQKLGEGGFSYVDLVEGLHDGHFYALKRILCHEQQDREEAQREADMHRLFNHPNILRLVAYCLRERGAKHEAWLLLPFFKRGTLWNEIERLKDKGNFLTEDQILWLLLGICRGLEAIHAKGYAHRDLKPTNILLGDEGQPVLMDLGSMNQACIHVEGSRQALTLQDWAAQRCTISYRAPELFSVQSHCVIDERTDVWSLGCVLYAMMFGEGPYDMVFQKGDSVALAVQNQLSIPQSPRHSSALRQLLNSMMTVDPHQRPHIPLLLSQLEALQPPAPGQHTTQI
Chain of UniProt Q15349 (whole entry, looked up): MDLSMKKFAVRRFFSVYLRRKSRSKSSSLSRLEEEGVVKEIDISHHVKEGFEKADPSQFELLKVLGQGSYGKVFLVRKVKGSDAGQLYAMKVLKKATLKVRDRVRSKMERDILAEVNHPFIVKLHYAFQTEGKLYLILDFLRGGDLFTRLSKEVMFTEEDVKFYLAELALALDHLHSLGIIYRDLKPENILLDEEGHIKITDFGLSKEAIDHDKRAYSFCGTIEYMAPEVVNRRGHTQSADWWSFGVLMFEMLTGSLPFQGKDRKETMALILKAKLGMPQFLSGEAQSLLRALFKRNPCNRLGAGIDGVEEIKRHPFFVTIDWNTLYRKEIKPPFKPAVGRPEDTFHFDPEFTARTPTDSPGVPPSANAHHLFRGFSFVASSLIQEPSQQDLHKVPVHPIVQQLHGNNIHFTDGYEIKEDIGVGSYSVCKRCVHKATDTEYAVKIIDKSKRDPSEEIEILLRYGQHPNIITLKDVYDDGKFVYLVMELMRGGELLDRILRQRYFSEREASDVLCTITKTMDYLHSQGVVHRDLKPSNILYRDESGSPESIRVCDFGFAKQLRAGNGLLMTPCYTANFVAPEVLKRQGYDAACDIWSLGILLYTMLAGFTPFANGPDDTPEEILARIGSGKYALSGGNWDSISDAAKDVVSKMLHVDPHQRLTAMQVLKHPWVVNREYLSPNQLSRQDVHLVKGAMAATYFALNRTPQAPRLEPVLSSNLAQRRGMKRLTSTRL
Chain of UniProt Q9BZL6 (whole entry, looked up): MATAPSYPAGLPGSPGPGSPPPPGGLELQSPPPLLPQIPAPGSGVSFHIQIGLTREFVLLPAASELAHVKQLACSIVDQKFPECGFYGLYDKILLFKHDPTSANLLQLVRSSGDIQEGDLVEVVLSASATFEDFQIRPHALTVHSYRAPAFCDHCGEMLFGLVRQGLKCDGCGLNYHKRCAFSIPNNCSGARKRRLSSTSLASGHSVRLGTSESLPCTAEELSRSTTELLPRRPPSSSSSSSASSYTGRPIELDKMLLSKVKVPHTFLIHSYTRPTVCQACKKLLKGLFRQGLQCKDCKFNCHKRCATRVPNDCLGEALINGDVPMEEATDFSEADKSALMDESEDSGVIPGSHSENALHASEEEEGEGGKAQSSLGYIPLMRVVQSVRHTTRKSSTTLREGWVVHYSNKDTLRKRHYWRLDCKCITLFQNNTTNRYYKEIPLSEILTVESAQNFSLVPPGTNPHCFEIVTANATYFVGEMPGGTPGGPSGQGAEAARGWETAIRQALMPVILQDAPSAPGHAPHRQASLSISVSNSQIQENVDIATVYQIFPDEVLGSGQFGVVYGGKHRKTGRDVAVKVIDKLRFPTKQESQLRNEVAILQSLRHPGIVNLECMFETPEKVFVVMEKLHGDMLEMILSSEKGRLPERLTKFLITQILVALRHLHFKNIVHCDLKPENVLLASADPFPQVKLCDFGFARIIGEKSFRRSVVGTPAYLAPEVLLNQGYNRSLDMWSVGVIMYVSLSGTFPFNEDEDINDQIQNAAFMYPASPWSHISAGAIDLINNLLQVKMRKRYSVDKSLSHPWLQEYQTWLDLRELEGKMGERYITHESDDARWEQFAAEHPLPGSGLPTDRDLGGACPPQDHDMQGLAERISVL
Chain of UniProt P49841 (whole entry, looked up): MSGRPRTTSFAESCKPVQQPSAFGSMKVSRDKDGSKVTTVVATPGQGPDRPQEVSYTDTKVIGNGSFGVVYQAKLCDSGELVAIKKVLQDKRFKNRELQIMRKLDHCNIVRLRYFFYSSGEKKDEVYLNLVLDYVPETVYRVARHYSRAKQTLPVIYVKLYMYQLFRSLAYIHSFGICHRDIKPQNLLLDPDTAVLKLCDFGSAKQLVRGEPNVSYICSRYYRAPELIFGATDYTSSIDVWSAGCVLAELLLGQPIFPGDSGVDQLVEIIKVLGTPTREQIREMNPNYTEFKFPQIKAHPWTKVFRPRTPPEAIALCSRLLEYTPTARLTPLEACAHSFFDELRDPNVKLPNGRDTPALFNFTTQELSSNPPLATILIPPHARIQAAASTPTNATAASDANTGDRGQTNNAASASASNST

Sample 1
SMILES: CC#CC(=O)N1CCC[C@H]1c1nc(-c2ccc(C(=O)Nc3ccccn3)cc2)c2c(N)nccn12
Effect on: enzyme activity
Action: inhibitor
Tested at: 1 µM
Quantity: inhibition
KIT (Homo sapiens, UniProt P10721, V559D): 38%
STK25 (Homo sapiens, UniProt O00506): 0%
GRK1 (Homo sapiens, UniProt Q15835): 28%
CSNK1G3 (Homo sapiens, UniProt Q9Y6M4): 2%
PTK2 (Homo sapiens, UniProt Q05397): 5%
CDK15 (Homo sapiens, UniProt Q96Q40): 0%
PDPK1 (Homo sapiens, UniProt O15530): 0%
Tyrosine-protein kinase ABL1, non-phosphorylated (ABL1, Homo sapiens, UniProt P00519, H396P): 31%
OXSR1 (Homo sapiens, UniProt O95747): 0%
PRKD2 (Homo sapiens, UniProt Q9BZL6): 0%
TGFBR2 (Homo sapiens, UniProt P37173): 0%

Sample 2
Target: Calcium/calmodulin-dependent protein kinase type II subunit alpha (CAMK2A, Homo sapiens, UniProt Q9UQM7)
Chain of UniProt Q9UQM7 (whole entry, looked up): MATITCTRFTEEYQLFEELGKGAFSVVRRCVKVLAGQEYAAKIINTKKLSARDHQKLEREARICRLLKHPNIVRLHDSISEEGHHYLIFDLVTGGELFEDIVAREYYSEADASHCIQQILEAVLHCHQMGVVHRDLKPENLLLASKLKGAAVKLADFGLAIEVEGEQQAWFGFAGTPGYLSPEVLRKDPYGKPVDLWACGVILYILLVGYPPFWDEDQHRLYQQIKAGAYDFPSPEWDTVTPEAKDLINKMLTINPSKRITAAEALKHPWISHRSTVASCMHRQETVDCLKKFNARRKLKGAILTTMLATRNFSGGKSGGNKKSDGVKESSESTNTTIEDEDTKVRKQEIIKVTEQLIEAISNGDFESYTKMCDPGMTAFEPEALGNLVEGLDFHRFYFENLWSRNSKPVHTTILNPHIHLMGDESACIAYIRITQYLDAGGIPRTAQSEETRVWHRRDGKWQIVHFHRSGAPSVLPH
Effect on: enzyme activity
Action: inhibitor
Tested at: 10 µM
Quantity: inhibition
CC(=O)OC(C)(C)CCC(=O)[C@](C)(O)[C@H]1[C@H](O)C[C@@]2(C)[C@@H]3CC=C4[C@@H](C[C@H](O)[C@@H](O)C4(C)C)[C@]3(C)C(=O)C[C@]12C: 7%
C[C@H]1CO[C@@H]2Cn3cc(C(=O)NCc4ccc(F)cc4F)c(=O)c(O)c3C(=O)N12: 3%
CC(=O)[C@@]1(O)CC[C@H]2[C@@H]3C=C(C)C4=CC(=O)CC[C@]4(C)[C@H]3CC[C@@]21C: -3%
COc1c(/C=C/C(=O)c2ccc(O)cc2)ccc(O)c1CC=C(C)C: -60%
COc1c(C=O)c(O)cc2c1C(=O)c1ccccc1C2=O: -8%
C=C(C)[C@@H]1CC[C@]2(C(=O)O[C@@H]3O[C@H](CO[C@@H]4O[C@H](CO)[C@@H](O[C@@H]5O[C@@H](C)[C@H](O)[C@@H](O)[C@H]5O)[C@H](O)[C@H]4O)[C@@H](O)[C@H](O)[C@H]3O)CC[C@]3(C)[C@H](CC[C@@H]4[C@@]5(C)CC[C@H](O[C@@H]6OC[C@H](O)[C@H](O)[C@H]6O[C@@H]6O[C@@H](C)[C@H](O)[C@@H](O)[C@H]6O)[C@@](C)(CO)[C@@H]5CC[C@]43C)[C@@H]12: 14%
CCCCCCCCCCCCCCCC(=O)O[C@@H]1[C@@H](O)[C@@H](O)[C@@H]([C@H](NC(=O)[C@@H]2C[C@@H](CCC)CN2C)[C@H](C)Cl)O[C@@H]1SC: -8%
CC(=O)OC[C@H]1O[C@@H](OC[C@H]2O[C@@H](OC(=O)[C@]34CCC(C)(C)C[C@H]3C3=CC[C@@H]5[C@@]6(C)CC[C@H](O[C@@H]7OC[C@H](O)[C@H](O)[C@H]7O[C@@H]7O[C@H](CO)[C@@H](O)[C@H](O)[C@H]7O)C(C)(C)[C@@H]6CC[C@@]5(C)[C@]3(C)CC4)[C@H](O)[C@@H](O)[C@@H]2O)[C@H](O)[C@@H](O)[C@@H]1O[C@@H]1O[C@@H](C)[C@H](O)[C@@H](O)[C@H]1O: 21%

Sample 3
Compound: O=C1NC(c2ccccn2)Sc2ccccc21 (stereo not drawn)
Tested at: 1 µM
Quantity: remaining binding
CDK19 (Homo sapiens, UniProt Q9BWU1); competition binding: 100%
Ribosomal protein S6 kinase alpha-4, N-terminal kinase domain (RPS6KA4, Homo sapiens, UniProt O75676); cell-free assay, competition with immobilised ligand: 100%
TTK (Homo sapiens, UniProt P33981); cell-free assay, competition with immobilised ligand: 91%
STK10 (Homo sapiens, UniProt O94804); cell-free assay, competition with immobilised ligand: 100%
NEK3 (Homo sapiens, UniProt P51956); cell-free assay, competition with immobilised ligand: 80%
WEE1 (Homo sapiens, UniProt P30291); cell-free assay, competition with immobilised ligand: 100%
STK16 (Homo sapiens, UniProt O75716); cell-free assay, competition with immobilised ligand: 83%
Ribosomal protein S6 kinase alpha-2, N-terminal kinase domain (RPS6KA2, Homo sapiens, UniProt Q15349); cell-free assay, competition with immobilised ligand: 97%
MAP2K1 (Homo sapiens, UniProt Q02750); cell-free assay, competition with immobilised ligand: 100%
AKT2 (Homo sapiens, UniProt P31751); cell-free assay, competition with immobilised ligand: 92%
MAP3K19 (Homo sapiens, UniProt Q56UN5); cell-free assay, competition with immobilised ligand: 92%
STK11 (Homo sapiens, UniProt Q15831); cell-free assay, competition with immobilised ligand: 87%
MYLK2 (Homo sapiens, UniProt Q9H1R3); cell-free assay, competition with immobilised ligand: 100%
BMPR1B (Homo sapiens, UniProt O00238); cell-free assay, competition with immobilised ligand: 71%
PLK1 (Homo sapiens, UniProt P53350); cell-free assay, competition with immobilised ligand: 100%
TXK (Homo sapiens, UniProt P42681); binding, competition with immobilised ligand: 100%
PIK3CA (Homo sapiens, UniProt P42336, E542K); cell-free assay, competition with immobilised ligand: 100%
MAP3K15 (Homo sapiens, UniProt Q6ZN16); cell-free assay, competition with immobilised ligand: 85%
MELK (Homo sapiens, UniProt Q14680); cell-free assay, competition with immobilised ligand: 81%
GSK3B (Homo sapiens, UniProt P49841); cell-free assay, competition with immobilised ligand: 65%
PRKD3 (Homo sapiens, UniProt O94806); cell-free assay, competition with immobilised ligand: 100%
CSNK2A2 (Homo sapiens, UniProt P19784); cell-free assay, competition with immobilised ligand: 100%
MAP3K6 (Homo sapiens, UniProt O95382); cell-free assay, competition with immobilised ligand: 65%
SIK2 (Homo sapiens, UniProt Q9H0K1); cell-free assay, competition with immobilised ligand: 96%
CDK13 (Homo sapiens, UniProt Q14004); cell-free assay, competition with immobilised ligand: 90%

Sample 4
SMILES: CN1CCN(C(=O)c2ccc(NC(=O)Nc3ccc(N(C)c4ccnc(Nc5ccc(CS(C)(=O)=O)cc5)n4)cc3)cc2)CC1
Tested at: 1 µM
Quantity: remaining binding
MAP3K10 (Homo sapiens, UniProt Q02779); competitive binding panel, refers to: MLK2; reference: vehicle: 82%
STK24 (Homo sapiens, UniProt Q9Y6E0); competitive binding panel, refers to: MST3; reference: vehicle: 47%
BMPR1B (Homo sapiens, UniProt O00238); competitive binding panel; reference: vehicle: 1.1%
EGFR (Homo sapiens, UniProt P00533); competitive binding panel; reference: vehicle: 100%
GRK1 (Homo sapiens, UniProt Q15835); competitive binding panel; reference: vehicle: 100%
MUSK (Homo sapiens, UniProt O15146); competitive binding panel; reference: vehicle: 11%
ALK (Homo sapiens, UniProt Q9UM73); competitive binding panel; reference: vehicle: 76%
IKBKE (Homo sapiens, UniProt Q14164); competitive binding; IKK-epsilon: 38%
MAP3K4 (Homo sapiens, UniProt Q9Y6R4); competitive binding panel; reference: vehicle: 4%
MAP3K20 (Homo sapiens, UniProt Q9NYL2); competitive binding panel, refers to: ZAK; reference: vehicle: 86%

A few entries again (sample 3):
MAP3K15 (Homo sapiens, UniProt Q6ZN16); cell-free assay, competition with immobilised ligand: 85%
MELK (Homo sapiens, UniProt Q14680); cell-free assay, competition with immobilised ligand: 81%
GSK3B (Homo sapiens, UniProt P49841); cell-free assay, competition with immobilised ligand: 65%
PRKD3 (Homo sapiens, UniProt O94806); cell-free assay, competition with immobilised ligand: 100%
CSNK2A2 (Homo sapiens, UniProt P19784); cell-free assay, competition with immobilised ligand: 100%
MAP3K6 (Homo sapiens, UniProt O95382); cell-free assay, competition with immobilised ligand: 65%
